Experimental data of several laboratories.
Each line is one published result; not all experiments were run side by side.

Structure (SMILES) | host | medium | route | dose | time | notes | Vz/F
CN(C)C(=O)c1cc2cnc(Nc3ccc(N4CCNCC4)cn3)nc2n1C1CCCC1 | human, severe renal impairment | plasma | oral | 400 mg | – | geometric mean | 2970 L
C[C@@H](c1ccc2nccn2c1)n1nnc2ncc(-c3cnn(C)c3)nc21 | human | plasma | oral | – | cycle 1 day 1, single dose | all | 178 L
C#C[C@]1(CO)O[C@@H](n2cnc3c(N)nc(F)nc32)C[C@@H]1O | human | plasma | oral | 100 mg | – | single dose, geometric mean | 2480 L
CC1(C)CC[C@]2(NC(=O)C(C)(F)F)CC[C@]3(C)[C@H](C(=O)C=C4[C@@]5(C)C=C(C#N)C(=O)C(C)(C)[C@@H]5CC[C@]43C)[C@@H]2C1 | human | plasma | oral | 150 mg | – | single dose alone, geometric mean | 11200 L
Cn1cc(-c2cn3nccc3c(-c3cnn([C@]4(CC#N)C[C@@H](C#N)C4)c3)n2)cn1 | healthy human | plasma | – | 100 mg once daily | day 10 | multiple dose, fed, geometric mean | 644 L
Fc1ccc([C@@H]2CCNC[C@H]2COc2ccc3c(c2)OCO3)cc1 | human, CYP2D6 poor metabolizers | – | oral | 20 mg | steady state | geometric mean | 736 L
CN1C(=O)[C@@H](NC(=O)c2nnc(Cc3ccccc3)[nH]2)COc2cccnc21 | healthy human, fasted | plasma | oral | 10 mg single dose | – | geometric mean | 46.9 L
C[C@H](Oc1ccc(Br)cc1-c1ccon1)C(=O)O | healthy male humans | plasma | oral | 600 mg once daily | day 10 | – | 38.1 L

A few entries again:
Structure (SMILES) | host | medium | route | dose | time | notes | Vz/F
CN1C(=O)[C@@H](NC(=O)c2nnc(Cc3ccccc3)[nH]2)COc2cccnc21 | healthy human, fasted | plasma | oral | 10 mg single dose | – | geometric mean | 46.9 L
